# Measured values from different studies.
# Each line is one published result; not all experiments were run side by side. ± gives the spread as reported.
# Target: Induced myeloid leukemia cell differentiation protein Mcl-1 (MCL1, Homo sapiens, UniProt Q07820)
test,conditions,quantity,result,Structure (SMILES)
"binding, fluorescence polarization","pH 7.8, 37 °C",Kd,> 1000 nM,CC[C@H](C)[C@H](NC(=O)[C@H](Cc1c[nH]c2ccccc12)NC(=O)[C@@H](NC(=O)[C@H](CCC(=O)O)NC(=O)[C@@H]1CCCN1C(=O)[C@H](CCCNC(=N)N)NC(C)=O)[C@@H](C)CC)C(=O)N[C@@H](C)C(=O)N[C@@H](CCC(N)=O)C(=O)N[C@@H](CCC(=O)O)C(=O)N[C@@H](CC(C)C)C(=O)N[C@@H](CCCNC(=N)N)C(=O)N[C@@H](CCCNC(=N)N)C(=O)N[C@@H](C)C(=O)NCC(=O)N[C@@H](CCCCN)C(=O)N[C@H](C(=O)N[C@@H](CC(C)C)C(=O)N[C@@H](CC(N)=O)C(=O)N[C@@H](C)C(=O)N[C@@H](Cc1ccc(O)cc1)C(=O)N[C@@H](Cc1ccc(O)cc1)C(=O)N[C@@H](C)C(=O)N[C@@H](CCCNC(=N)N)C(N)=O)C(C)C
competition SPR,"pH 7.4, with: BimBH3 peptide",IC50,70 ± 7 nM,CC[C@H](C)[C@H](NC(C)=O)C(=O)N[C@H](CC(=O)N[C@H](C(=O)N[C@@H](C)C(=O)N[C@@H](CCC(N)=O)C(=O)N[C@@H](CCC(=O)O)CC(=O)N[C@@H](CC(C)C)C(=O)N[C@@H](CCCNC(=N)N)C(=O)N[C@@H](CCCNC(=N)N)CC(=O)N[C@H](C(=O)NCC(=O)N[C@@H](CC(=O)O)C(=O)N[C@@H](CCC(=O)O)CC(=O)N[C@@H](Cc1ccccc1)C(=O)N[C@@H](CC(N)=O)C(=O)N[C@@H](C)CC(=O)N[C@@H](Cc1ccc(O)cc1)C(=O)N[C@@H](Cc1ccc(O)cc1)C(N)=O)[C@@H](C)CC)[C@@H](C)CC)Cc1c[nH]c2ccccc12
"ligand displacement, FP",,Ki,47000 nM,Cc1cccc2c1O[C@@H](c1nc(C(=O)O)cs1)CN2Cc1ccccc1
"ligand displacement, TR-FRET",,IC50,> 1000 nM,CC1(C)CCC(CN2CCN(c3ccc(C(=O)NS(=O)(=O)c4ccc(NCC5COCCO5)c([N+](=O)[O-])c4)c(N4CCCOc5nc6[nH]ccc6cc54)c3)CC2)=C(c2ccc(Cl)cc2)C1 (stereo not drawn)
"ligand displacement, FP",,IC50,49 nM,CC[C@H](C)[C@@H]1NC(=O)[C@H](CCCNC(=N)N)NC(=O)[C@H](CCCNC(=N)N)NC(=O)[C@H](CC(C)C)NC(=O)[C@@H](NC(=O)[C@H](C)NC(=O)[C@H](C)NC(C)=O)CSC/C=C/c2ccc(cc2)/C=C/CSC[C@@H](C(=O)N[C@H](C(=O)N[C@@H](CC(N)=O)C(=O)N[C@@H](CC(C)C)C(=O)N[C@@H](CCCNC(=N)N)C(=O)N[C@@H](CCC(N)=O)C(=O)N[C@@H](CCCCN)C(=O)N[C@@H](CC(C)C)C(=O)N[C@@H](CC(C)C)C(=O)N[C@@H](CC(N)=O)C(N)=O)C(C)C)NC(=O)[C@H](CC(=O)O)NC(=O)CNC1=O
fluorescence anisotropy competition,"pH 7.50, with: FITC-NOXA B peptide",IC50,24100 ± 1400 nM,CC(C)Oc1cc(NC(=O)[C@H](Cc2c[nH]c3ccccc23)NC(=O)c2ccc(N)c(OCc3ccccc3)c2)ccc1C(=O)NCC(=O)O
"ligand displacement, FP",,IC50,72 nM,CC1=C(C2=C(C)C(=O)c3c(cc(O)c(O)c3C(C)C)C2=O)C(=O)c2cc(O)c(O)c(C(C)C)c2C1=O (racemic)
"binding, fluorescence anisotropy",,Kd,< 1 nM,CC[C@H](C)[C@H](NC(=O)[C@H](CCCNC(=N)N)NC(=O)[C@H](CO)NC(=O)[C@H](CC(C)C)NC(=O)[C@H](CCC(=O)O)NC(=O)[C@H](CCC(N)=O)NC(=O)[C@H](C)NC(=O)[C@@H](NC(=O)[C@H](Cc1c[nH]c2ccccc12)NC(=O)[C@@H](NC(=O)[C@H](CCC(=O)O)NC(=O)[C@@H]1CCCN1C(=O)[C@H](CCCNC(=N)N)NC(=O)c1ccc2c(c1)C(=O)OC21c2ccc(O)cc2Oc2cc(O)ccc21)[C@@H](C)CC)[C@@H](C)CC)C(=O)NCC(=O)N[C@@H](CC(=O)O)C(=O)N[C@@H](CCC(=O)O)C(=O)N[C@@H](Cc1ccccc1)C(=O)N[C@@H](CC(N)=O)C(=O)N[C@@H](C)C(=O)N[C@@H](Cc1ccc(O)cc1)C(=O)N[C@@H](Cc1ccc(O)cc1)C(=O)N[C@@H](C)C(=O)N[C@@H](CCCNC(=N)N)C(N)=O
competition SPR,"pH 7.4, with: BimBH3 peptide",IC50,109 ± 1 nM,CC[C@H](C)[C@H](NC(C)=O)C(=O)N[C@H](CC(=O)N[C@H](C(=O)N[C@@H](C)C(=O)N[C@@H](CCC(N)=O)C(=O)N[C@@H](CCC(=O)O)CC(=O)N[C@@H](CC(C)C)C(=O)N[C@@H](CCCNC(=N)N)C(=O)N[C@@H](CCCNC(=N)N)C(=O)N[C@H](CC(=O)NCC(=O)N[C@@H](CC(=O)O)C(=O)N[C@@H](CCC(=O)O)C(=O)N[C@H](CC(=O)N[C@@H](CC(N)=O)C(=O)N[C@@H](C)C(=O)N[C@@H](Cc1ccc(O)cc1)C(=O)N[C@H](CC(N)=O)Cc1ccc(O)cc1)Cc1ccccc1)[C@@H](C)CC)[C@@H](C)CC)Cc1c[nH]c2ccccc12
"ligand displacement, FP",,IC50,53 nM,CC1=C(C2=C(C)C(=O)c3c(cc(O)c(O)c3Cc3ccccc3)C2=O)C(=O)c2cc(O)c(O)c(Cc3ccccc3)c2C1=O (racemic)
fluorescence anisotropy competition,"pH 7.50, with: FITC-NOXA B peptide",IC50,> 100000 nM,CC(C)Oc1cc(C(=O)NCC(=O)O)ccc1NC(=O)[C@H](Cc1ccccc1)NC(=O)c1ccc(N)c(OCc2ccccc2)c1
"ligand displacement, FP",,IC50,71 nM,CC[C@H](C)[C@@H]1NC(=O)[C@H](CCCNC(=N)N)NC(=O)[C@H](CCCNC(=N)N)NC(=O)[C@H](CC(C)C)NC(=O)[C@@H](NC(=O)[C@H](C)NC(=O)[C@H](C)NC(C)=O)CSCc2ccc(cc2)-c2ccc(cc2)CSC[C@@H](C(=O)N[C@H](C(=O)N[C@@H](CC(N)=O)C(=O)N[C@@H](CC(C)C)C(=O)N[C@@H](CCCNC(=N)N)C(=O)N[C@@H](CCC(N)=O)C(=O)N[C@@H](CCCCN)C(=O)N[C@@H](CC(C)C)C(=O)N[C@@H](CC(C)C)C(=O)N[C@@H](CC(N)=O)C(N)=O)C(C)C)NC(=O)[C@H](CC(=O)O)NC(=O)CNC1=O
"ligand displacement, FP",,Ki,40000 nM,O=C(O)c1csc(C2COc3ccccc3O2)n1 (stereo not drawn)
fluorescence anisotropy competition,"pH 7.50, with: FITC-NOXA B peptide",IC50,27100 ± 1100 nM,CC(C)Oc1cc(NC(=O)[C@@H](Cc2ccccc2)NC(=O)c2ccc(N)c(OCc3ccccc3)c2)ccc1C(=O)NCC(=O)O
"ligand displacement, FP",,IC50,183 nM,CC[C@H](C)[C@@H]1NC(=O)[C@H](CCCNC(=N)N)NC(=O)[C@H](CCCNC(=N)N)NC(=O)[C@H](CC(C)C)NC(=O)[C@@H](NC(=O)[C@H](C)NC(=O)[C@H](C)NC(C)=O)CSCc2ccc(c(OC)c2)-c2ccc(cc2OC)CSC[C@@H](C(=O)N[C@H](C(=O)N[C@@H](CC(N)=O)C(=O)N[C@@H](CC(C)C)C(=O)N[C@@H](CCCNC(=N)N)C(=O)N[C@@H](CCC(N)=O)C(=O)N[C@@H](CCCCN)C(=O)N[C@@H](CC(C)C)C(=O)N[C@@H](CC(C)C)C(=O)N[C@@H](CC(N)=O)C(N)=O)C(C)C)NC(=O)[C@H](CC(=O)O)NC(=O)CNC1=O

# Excerpt of the above:
test,conditions,quantity,result,Structure (SMILES)
competition SPR,"pH 7.4, with: BimBH3 peptide",IC50,109 ± 1 nM,CC[C@H](C)[C@H](NC(C)=O)C(=O)N[C@H](CC(=O)N[C@H](C(=O)N[C@@H](C)C(=O)N[C@@H](CCC(N)=O)C(=O)N[C@@H](CCC(=O)O)CC(=O)N[C@@H](CC(C)C)C(=O)N[C@@H](CCCNC(=N)N)C(=O)N[C@@H](CCCNC(=N)N)C(=O)N[C@H](CC(=O)NCC(=O)N[C@@H](CC(=O)O)C(=O)N[C@@H](CCC(=O)O)C(=O)N[C@H](CC(=O)N[C@@H](CC(N)=O)C(=O)N[C@@H](C)C(=O)N[C@@H](Cc1ccc(O)cc1)C(=O)N[C@H](CC(N)=O)Cc1ccc(O)cc1)Cc1ccccc1)[C@@H](C)CC)[C@@H](C)CC)Cc1c[nH]c2ccccc12
fluorescence anisotropy competition,"pH 7.50, with: FITC-NOXA B peptide",IC50,24100 ± 1400 nM,CC(C)Oc1cc(NC(=O)[C@H](Cc2c[nH]c3ccccc23)NC(=O)c2ccc(N)c(OCc3ccccc3)c2)ccc1C(=O)NCC(=O)O
